Measured values of several laboratories.
Lines come from different studies, so protocols differ. “And” joins repeats or separate records; there may be more than shown. ± marks the error that the study gave.

Compound = CNCc1ccc2c(c1)N(C(=O)OCc1c(F)c(F)c(F)c(F)c1F)[C@H](CNC(=N)N)[C@H]2NC(=O)C(=O)Nc1ccc(Cl)c(F)c1; organism = HIV-1; test = pseudovirus infection; test system = TZM-bl, clade G, X1632_S2_B10; quantity = IC80; value = 4010 nM
Compound = COc1ccc(Nc2n[nH]c3nc(-c4ccccc4)nc(N)c23)cc1; organism = rhinovirus B42; test = viral cytopathic effect; test system = HeLa; quantity = IC50; value = 10 nM
Compound = Cc1cccc2c1N(C(=O)n1ccnn1)CC2; organism = Striga hermonthica; test system = seeds; conditions = 10 µM, with: 10 nM (±)-GR24; quantity = germination rate; value = 42.9% and 71% and 67.6% and 76.9% and 84.8% and 64.9% and 46.2%
Compound = FC(F)(F)c1cccc(CNc2nc(NC3CCN(Cc4ccccc4)CC3)c3nc[nH]c3n2)c1; organism = Cryptococcus neoformans; test = RNA-seq, refers to: CNAG_05320; test system = wild type; conditions = 48 µg/mL, 3 h; how to read = baseline: untreated wild type; quantity = log2 fold change; value = 0.386
Compound = COC1C=COC2(C)Oc3c(C)c(O)c4c(c3C2=O)C2=NC3(CCN(CC(C)C)CC3)NC2=C(NC(=O)C(C)=CC=CC(C)C(O)C(C)C(O)C(C)C(OC(=O)Nc2cnccn2)C1C)C4=O (centres unmarked); organism = Mycobacteroides abscessus; test = bacterial growth; test system = subsp. abscessus ATCC 19977; quantity = IC90; value = 44 nM
Compound = COc1ccc(C(c2c[nH]c(=O)[nH]c2=O)c2c[nH]c(=O)[nH]c2=O)cc1OC; organism = Human immunodeficiency virus 1; test = viral replication, inhibitor, ELISA; conditions = 1 µg/mL; quantity = inhibition; value = 19%
Compound = CC1=N[C@H](C)Cc2c(-c3ccc4ccccc4c3)ccc(O)c21; organism = Plasmodium falciparum; test = asexual parasite proliferation, SYBR Green I fluorescence; test system = Dd2; quantity = IC50; value = 600 ± 120 nM
Compound = O=C(O)c1ccc(C(c2c[nH]c(=O)[nH]c2=O)c2c[nH]c(=O)[nH]c2=O)cc1; organism = Human immunodeficiency virus 1; test = viral replication, inhibitor, ELISA; conditions = 1 µg/mL; quantity = inhibition; value = 16%
Compound = Cc1ncsc1-c1ccc(CNC(=O)[C@@H]2C[C@H](O)CN2C(=O)[C@@H](NC(=O)CN2CCN(C3CN(CCNC(=O)C[C@@H]4N=C(c5ccc(Cl)cc5)c5c(sc(C)c5C)-n5c(C)nnc54)C3)CC2)C(C)(C)C)cc1; organism = Spodoptera frugiperda; test = degrader, targeted LC-MS, refers to: BRD3; test system = Sf9; conditions = 0.0001 µM; quantity = protein level; value = 131% and 145% and 128% and 150%
Compound = CN(Cc1ccc(C2(C(F)(F)F)CCC2)cc1)Cc1cccc2ccccc12; organism = Trichophyton rubrum; test = microbial growth, disc diffusion; test system = ATCC28188; conditions = 0.00025 µg/mL, 6 days; quantity = inhibition zone; value = 0 mm
Compound = O=c1[nH]cc(C(c2cc(F)c(F)c(F)c2)c2c[nH]c(=O)[nH]c2=O)c(=O)[nH]1; organism = Human immunodeficiency virus 1; test = viral replication, inhibitor, ELISA; conditions = 1 µg/mL; quantity = inhibition; value = 28%
Compound = Cc1cccc(-c2nc(N)c3c(Nc4ccc(F)cc4)n[nH]c3n2)c1; organism = rhinovirus B42; test = viral cytopathic effect; test system = HeLa; quantity = IC50; value = 2030 nM
Compound = COc1cccc2c(-c3ccc4c(c3O)[C@@H](C)N[C@H](C)C4)c(CO)cc(OC)c12; organism = Plasmodium falciparum; test = asexual parasite proliferation, SYBR Green I fluorescence; test system = HB3; quantity = IC50; value = 15.5 ± 3.8 nM
Compound = C=C[C@]1(C)C[C@@H](OC(=O)CSc2ccc(NC(=O)c3ccco3)cc2)[C@]2(C)[C@H](C)CC[C@]3(CCC(=O)[C@H]32)[C@@H](C)[C@@H]1O; organism = Mycoplasma gallisepticum; test system = infected chickens; conditions = intramuscular, 40 mg/kg daily x3, scale 0 to 4; how to read = direction not given; quantity = air sac lesion score; value = 3 and 2 and 1 and 0
Compound = CC(C)c1ccc(Nc2n[nH]c3nc(-c4ccccc4)nc(N)c23)cc1; organism = coxsackievirus B3; test = viral cytopathic effect; test system = HeLa; quantity = IC50; value = 2560 nM
Compound = COCCN(C)CC(=O)NC(Cc1ccc(-c2ccccc2)cc1)B(O)O (centres unmarked); organism = Plasmodium berghei; test = exoerythrocytic infection; test system = HepG2, liver stage; conditions = 48 h; quantity = IC50; value = 110 nM
Compound = CCc1ccc(-c2nc(N)c3c(Nc4ccccc4)n[nH]c3n2)cc1; organism = rhinovirus B42; test = viral cytopathic effect; test system = HeLa; quantity = IC50; value = 490 nM
Compound = CC[C@H](C)[C@H](NC(=O)[C@H](Cc1ccc(O)cc1)NC(=O)[C@H](CCC(=O)O)NC(=O)CNC(=O)[C@H](CCC(=O)O)NC(=O)[C@H](CCCCN)NC(=O)[C@H](CCCCN)NC(=O)[C@H](CC(=O)O)NC(=O)[C@H](Cc1c[nH]cn1)NC(=O)[C@H](Cc1c[nH]cn1)NC(=O)[C@H](Cc1c[nH]cn1)NC(=O)[C@H](Cc1c[nH]cn1)NC(=O)[C@H](Cc1c[nH]cn1)NC(=O)[C@H](Cc1c[nH]cn1)NC(=O)[C@H](Cc1c[nH]cn1)NC(=O)[C@H](Cc1c[nH]cn1)NC(=O)[C@H](Cc1c[nH]cn1)NC(=O)[C@@H](N)Cc1c[nH]cn1)C(=O)N[C@@H](CCCCN)C(=O)N[C@@H](CC(C)C)C(=O)N[C@@H](CCCCN)C(=O)N[C@H](C(=O)N[C@H](C(=O)NCC(=O)N[C@@H](CCC(N)=O)C(=O)N[C@@H](CC(=O)O)C(=O)N[C@@H](CO)C(=O)N[C@@H](CO)C(=O)N[C@@H](CCC(=O)O)C(=O)N[C@H](C(=O)N[C@@H](Cc1c[nH]cn1)C(=O)N[C@@H](Cc1ccccc1)C(=O)N[C@@H](CCCCN)C(=O)N[C@H](C(=O)N[C@@H](CCCCN)C(=O)N[C@@H](CCSC)C(=O)N[C@H](C(=O)N[C@H](C(=O)N[C@@H](Cc1c[nH]cn1)C(=O)N[C@@H](CC(C)C)C(=O)N[C@@H](CCCCN)C(=O)N[C@@H](CCCCN)C(=O)N[C@@H](CC(C)C)C(=O)N[C@@H](CCCCN)C(=O)N[C@@H](CCC(=O)O)C(=O)N[C@@H](CO)C(=O)N[C@@H](Cc1ccc(O)cc1)C(=O)N[C@@H](CS)C(=O)N[C@@H](CCC(N)=O)C(=O)N[C@@H](CCCNC(=N)N)C(=O)N[C@@H](CCC(N)=O)C(=O)O)[C@@H](C)O)[C@@H](C)O)C(C)C)[C@@H](C)CC)[C@@H](C)CC)C(C)C; organism = Drosophila melanogaster; test system = α-synuclein A53T transgenic; conditions = 60 µM, 11 days post eclosion, unit not given; how to read = baseline: untreated; quantity = climbing mean difference; value = -10
Compound = Cc1ccc(-c2nc(N)c3c(Nc4ccc(F)cc4)n[nH]c3n2)cc1F; organism = rhinovirus B42; test = viral cytopathic effect; test system = HeLa; quantity = IC50; value = 1690 nM
Compound = COc1ccc(-c2cccc3ccccc23)c2c1C=NC(C)(C)C2; organism = Plasmodium falciparum; test = parasite growth, SYBR Green; test system = NF54; conditions = blood stage; quantity = IC50; value = 14500 nM
Compound = Nc1nc(-c2ccc(C(F)(F)F)cc2)nc2[nH]nc(Nc3ccc(F)cc3)c12; organism = rhinovirus B42; test = viral cytopathic effect; test system = HeLa; quantity = IC50; value = 3180 nM
Compound = C[C@H](O)CC(=O)OCCc1ccc(O)cc1; organism = Zika virus; test = viral replication, CCK-8; test system = Vero C1008; conditions = 10 µM, 96 h; quantity = inhibition; value = 0%
Compound = Nc1nc(-c2ccc(Cl)cc2)nc2[nH]nc(Nc3ccc(F)cc3)c12; organism = rhinovirus B42; test = viral cytopathic effect; test system = HeLa; quantity = IC50; value = 130 nM
Compound = CC(C)(C)NCC(SS(=O)(=O)O)c1ccccc1 (centres unmarked); organism = Schistosoma mansoni; test system = mice; conditions = 600 mg/kg single dose, dosed day 15, perfused 44; quantity = male worms recovered; value = 1 worms per mouse and 2 worms per mouse and 3 worms per mouse and 5 worms per mouse and 0 worms per mouse
Compound = C=C(NC(=O)c1csc(-c2nc3c(cc2O)-c2nc(cs2)C(=O)NC(C(C)O)C(=O)NC(=C(C)OC)c2nc(cs2)C(=O)NC2c4nc(cs4)C(=O)NC(COC(=O)c4c5c6c(cccc6n4O)COC(=O)C(OC4CC(C)(O)C(N(C)C)C(C)O4)C2OC5)c2nc-3cs2)n1)C(N)=O (centres unmarked); organism = Streptococcus pneumoniae; test system = -4, immunocompromised mice, lung infection; conditions = 2 mg/kg/day, twice daily, 24 h post-dose; quantity = lung bacterial load; value = 4.38 log CFU/g
Compound = Cc1ccc(-c2nc(N)c3c(Nc4ccc(F)cc4)n[nH]c3n2)cc1; organism = rhinovirus B42; test = viral cytopathic effect; test system = HeLa; quantity = IC50; value = 110 nM

Excerpt of the above:
Compound = CC(C)(C)NCC(SS(=O)(=O)O)c1ccccc1 (centres unmarked); organism = Schistosoma mansoni; test system = mice; conditions = 600 mg/kg single dose, dosed day 15, perfused 44; quantity = male worms recovered; value = 1 worms per mouse and 2 worms per mouse and 3 worms per mouse and 5 worms per mouse and 0 worms per mouse
Compound = C=C(NC(=O)c1csc(-c2nc3c(cc2O)-c2nc(cs2)C(=O)NC(C(C)O)C(=O)NC(=C(C)OC)c2nc(cs2)C(=O)NC2c4nc(cs4)C(=O)NC(COC(=O)c4c5c6c(cccc6n4O)COC(=O)C(OC4CC(C)(O)C(N(C)C)C(C)O4)C2OC5)c2nc-3cs2)n1)C(N)=O (centres unmarked); organism = Streptococcus pneumoniae; test system = -4, immunocompromised mice, lung infection; conditions = 2 mg/kg/day, twice daily, 24 h post-dose; quantity = lung bacterial load; value = 4.38 log CFU/g
Compound = Cc1ccc(-c2nc(N)c3c(Nc4ccc(F)cc4)n[nH]c3n2)cc1; organism = rhinovirus B42; test = viral cytopathic effect; test system = HeLa; quantity = IC50; value = 110 nM
